{"data": "Measurements from different studies", "note": "Numbered parts are unrelated; each lists some results of a single study."}
{"data": "Study 1", "target": "Interferon regulatory factor 5, full length, phosphomimetic (IRF5, Homo sapiens, UniProt Q13568-2, residues 1-514, K96S/S451D/S453D/S456D/S462D)", "technique": "protein-binding microarray", "form": "double-stranded DNA, one strand shown", "sample": "in vitro", "tested at": "250 nM", "notes": "60-bp whole probe", "added": "salmon DNA 0.4 mg/ml", "reference": "random background probes", "direction": "higher = stronger binding", "shared flanks, not repeated": "GCCTAGCAC … GTCTTGATTCGCTTGACGCTGCTG"}
{"Sequence": "TTAGGACTGGACTTTCGGCTAGTGCTA", "log fluorescence [z-score]": 6.27}
{"Sequence": "CTCATTCTCTGTTTATGTCTGTGCTAG", "log fluorescence [z-score]": 1.06}
{"Sequence": "TTAGGTATCGACACTGTGTTAGTGCTA", "log fluorescence [z-score]": 2.32}
{"Sequence": "GACGGGATCGACTATCGGGACGTGCTA", "log fluorescence [z-score]": 1.26}
{"Sequence": "GACGACTTCGGGTATCGAGACGTGCTA", "log fluorescence [z-score]": 0.855}
{"Sequence": "GACGATTTCAGTCTCGAGGCGTGCTAG", "log fluorescence [z-score]": 1.34}
{"Sequence": "GACGATATCAGACCGGAGACGTGCTAG", "log fluorescence [z-score]": 0.383}
{"Sequence": "TTAGAACTGTGGACTGGATTAGTGCTA", "log fluorescence [z-score]": -0.339}
{"Sequence": "TCAAGTTTTGAGCTCTGACTGTGCTAG", "log fluorescence [z-score]": 0.0543}
{"data": "Study 2", "target": "RNA binding protein fox-1 homolog 2, RRM domain, GST-SBP tag (RBFOX2, Homo sapiens, UniProt O43251-10, residues 100-194)", "technique": "RNA Bind-n-Seq", "form": "RNA", "sample": "in vitro", "tested at": "365 nM", "notes": "natural RNA segment, single round, ends assumed", "reference": "no-protein control", "direction": "higher = stronger binding", "shared flanks, not repeated": "GGGAGUUCUACAGUCCGACGAUC … UGGAAUUCUCGGGUGCCAA", "Residues (chain)": "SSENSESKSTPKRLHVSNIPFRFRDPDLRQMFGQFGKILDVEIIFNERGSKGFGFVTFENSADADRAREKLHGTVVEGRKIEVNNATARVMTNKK"}
{"Sequence": "AUGGCACACCUAGAUUCUUCUGGAAACAUUCUGGAACCUAUCUGAUGACCAGUAUUUCCAGAGUAAGGUGGAAGAUGAGAAAGAGAUAAGUUACCAAGAGAAGCUGGAGG", "RBNS enrichment (R)": 0.409}
{"Sequence": "AGGCACUUUCUGUUUUUUUUAAAAAAAUAAUAAGGUCUCAUGGCUUCAUUUAGAGACCACAGUAACAACAGCAGCCCACCAAUCAGAGAAGCUGGUUGUUAUUAACCAAG", "RBNS enrichment (R)": 0.361}
{"Sequence": "AAAUGCCAUGGCCAUUGCUGACCCAUGAUUCAGCUAAGUUAAGCAGUCAUAAGGAAAGAAUUACGUGUACUUCAUAUCCCUAUAAAUUGUAAAUGCUAAAAAUGUUAAAG", "RBNS enrichment (R)": 0.318}
{"Sequence": "GUCAUUUUCUCAAAUCAUAUUCCAUUGUAUCAGUUAACAUAUAGUUUUAAAUGUAUGUAUUAUAAAUAUCUGUAACCAAAUCAUUUGAAGGCUUGAUAAAUUUUUAACAA", "RBNS enrichment (R)": 1.26}
{"Sequence": "UUCCUGGUUCUGGGGAGAAGGGUGUGUGAAGGAGAAUAAAGCAGCCCUUUGUCUUAAAGAAGACUAAUGUUAAUUGUUCUCAGAACUGGACGUUUUUUUUCCCCCCAUCA", "RBNS enrichment (R)": 0.388}
{"Sequence": "AGACUCAUCCCCGUGGGCUAGGACAGGAGGCCACUAGUACUGAUGCCAAACCAGGCCUCCACCGACCCACCUGCCUGGAGAUUUCCUCUAUGUAGGCAACCCUGCCACUG", "RBNS enrichment (R)": 0.565}
{"Sequence": "UCACUUUAAAAUCUAUCGAAGCUCUUUUAACGUAAUGGGUGACAAUGUCACAUGACAGAUGCCAUGAAGAAGUCAACCGAUAUAGCUUGGAUCUGUGAACCCUGUACUGC", "RBNS enrichment (R)": 0.415}
{"Sequence": "AUUCAAGCAUGCUGUUAGGAAUGUAAUUUCAAUGGGAAGUAAACCACUAUUAGGUUUUUUUUCUUUUCCUCUGUGGGGCUAAGACACUUGAUUAAACAGUUUUUCUUGUU", "RBNS enrichment (R)": 16.4}
{"Sequence": "UUGAAUUGUGAGAACAUUUUUGAACAAUUUACCUGUCAAUAAAGCAGAAGACGGCAGUUUUAAAGUUCCAGUGGUCCGUUUGGAUGUGGUAACAUGUCACCCGUGUGUCU", "RBNS enrichment (R)": 0.681}
{"Sequence": "CAGCCAGGCUGGGGAGCAGAGCAACCAGCACAGCAUGGCUGCUGCCCUUUUAUUUAUUGGACCAGAAACUCGCAUAUCACUUCCAGAGGAACAGGCCUCAGGAAUAUUUC", "RBNS enrichment (R)": 0.973}
{"Sequence": "ACUGACCUCUAGGAGAUUCUAGUCAGGAGCCCACUAACCUGGGCCGUCAUGUUUAGAGCUGAAGGAGUCUUCAUAGCCCAGGCUGUCCUGGGUAUUGCAGGAUGCUGAUU", "RBNS enrichment (R)": 0.633}
{"data": "Study 3", "target": "Ras GTPase-activating protein-binding protein 1, full length (G3BP1, Homo sapiens, UniProt Q13283)", "technique": "RNA Bind-n-Seq", "form": "RNA", "sample": "in vitro", "tested at": "200 nM", "notes": "whole 134-nt RNA, ends assumed", "added": "150 mM KCl", "reference": "input library", "direction": "higher = stronger binding", "shared flanks, not repeated": "GGGAGUUCUACAGUCCGACGAUC … UGGAAUUCUCGGGUGUCAAGG", "chain of UniProt Q13283 (whole entry, looked up)": "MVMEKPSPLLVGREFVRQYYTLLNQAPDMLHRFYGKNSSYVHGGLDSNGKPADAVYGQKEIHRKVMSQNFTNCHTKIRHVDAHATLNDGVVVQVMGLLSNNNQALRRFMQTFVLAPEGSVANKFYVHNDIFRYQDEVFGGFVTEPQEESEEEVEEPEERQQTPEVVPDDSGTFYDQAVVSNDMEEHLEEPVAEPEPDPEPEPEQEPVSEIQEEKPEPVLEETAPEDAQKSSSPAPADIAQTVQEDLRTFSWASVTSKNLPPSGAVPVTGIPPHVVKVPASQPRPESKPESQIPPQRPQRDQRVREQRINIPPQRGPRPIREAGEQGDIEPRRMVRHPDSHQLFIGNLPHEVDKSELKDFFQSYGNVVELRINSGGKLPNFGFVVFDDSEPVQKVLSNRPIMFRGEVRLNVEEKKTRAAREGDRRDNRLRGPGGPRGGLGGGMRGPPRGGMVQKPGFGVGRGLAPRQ"}
{"Sequence": "CUCAAGUCCUGUGCUACACAUCGUAUGUACCGAAUCGGGGAGGGGAGGAGGGGAAAGUAUUAUGUUACGCCGUUCGGAUCUGCACUUCCA", "log2 enrichment": 1.23}
{"Sequence": "UCAAGUCCUGUGCUACACAUCGUAUGUACCGAAUCGGGUGGGAAAAAGGGUGGGAAAGUAUUAUGUUACGCCGUUCGGAUCUGCACUUCC", "log2 enrichment": 0.779}
{"Sequence": "UCCUGUGCUACACAUCGUAUGUACCGAAUCGGGUUUUUGGGAAAAAGGGAAAAAAAGGGAAAGUAUUAUGUUACGCCGUUCGGAUCUGCA", "log2 enrichment": -0.312}
{"Sequence": "AGUCCUGUGCUACACAUCGUAUGUACCGAAUCGGGUUUUUGGGAAAGGGUUUUUGGGAAAGUAUUAUGUUACGCCGUUCGGAUCUGCACU", "log2 enrichment": -0.314}
{"Sequence": "UUAAAACAUGGCAACUUGUAAUUGUUUUCUUUCUUAGGAACAUCAUUCAUGGCAGUGAUUCAGUAAAAAGUGCUGAAAAAGAAAUCAGCC", "log2 enrichment": 0.5}
{"Sequence": "GCAGGAAGUAAAAGCAAAUGGAAAUGCUUCGGAUAGUGGCAGGGGUGGGGGUUGCUAAGGAAAGGGUGGGAUGGGAGUGGGUAAAGAGUU", "log2 enrichment": 1.16}
{"Sequence": "UGGGAGGUGGAUUUUGUUUAUUUUUUUAGCUCAUUUCCAGGAGUGGGAAUUUUUUUUUAAUAUGUGUCAUGAAUAAAGUUGUUUUUGAAA", "log2 enrichment": 0.529}
{"Sequence": "CACAGACAACACGCAAAAACACAGACACAGAGGGAAGGGGUUGGGAUGGGGACAGGGUGCACAGCAGGGCGGGGUAGGACCCCAGCCCCU", "log2 enrichment": 1.6}
{"Sequence": "GCAGGAAGUAAAAACAAAUGGAAAUGCUUCGGAUAGUGGCAGGGGUGGGGGUUGCUAAAGAAAGGGUGGGAUGGGAGUGGGUAAAGAGUU", "log2 enrichment": 0.816}
{"Sequence": "CCUCAAGUCCUGUGCUACACAUCGUAUGUACCGAAUCGGGGCGGGGCGGGCGGAAAGUAUUAUGUUACGCCGUUCGGAUCUGCACUUCCA", "log2 enrichment": 0.488}
{"data": "Other studies, line by line"}
{"Molecule": "PhoQ, residues 284 288 289 292 302 303 SCCLKL", "target": "PhoP, residues 12 14 15 18 19 AQCLL (Escherichia coli, UniProt P23836)", "assay": "Sort-seq, measured: YFP reporter", "test system": "E. coli", "conditions": "PhoQ-PhoP variant library, added: 10 µM Mg2+", "how to read": "reference: high Mg2+ state, higher = stronger signaling", "measurement": "fold induction", "result": 0.732}
{"note": "Excerpt of the above (study 1):"}
{"Sequence": "CTCATTCTCTGTTTATGTCTGTGCTAG", "log fluorescence [z-score]": 1.06}
{"Sequence": "TCAAGTTTTGAGCTCTGACTGTGCTAG", "log fluorescence [z-score]": 0.0543}
{"Sequence": "GACGATTTCAGTCTCGAGGCGTGCTAG", "log fluorescence [z-score]": 1.34}
